Results from different studies.
Parts stem from different laboratories: compare values within a part only. Substitutions count along the parent as printed.

Series 1 — target: CCNB3, cyclin fold, Cln2 fusion (human); technique: yeast growth competition, sequencing; sample: yeast; setting: weak parent motif; baseline: not given; direction: higher = stronger binding
Starting sequence: CENPC docking peptide (human); VKTKKRLNFDDKV; partner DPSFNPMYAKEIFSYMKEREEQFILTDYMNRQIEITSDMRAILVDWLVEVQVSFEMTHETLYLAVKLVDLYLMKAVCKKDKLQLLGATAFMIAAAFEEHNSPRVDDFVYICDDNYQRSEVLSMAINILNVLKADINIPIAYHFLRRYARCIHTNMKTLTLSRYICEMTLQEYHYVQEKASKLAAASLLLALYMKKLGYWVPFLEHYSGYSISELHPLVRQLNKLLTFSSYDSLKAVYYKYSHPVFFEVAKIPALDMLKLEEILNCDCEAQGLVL
Variant	normalised enrichment score
D11A	0.572
K5R F9L	0.144
K12A	0.542
V13A	0.091
V1A	0.332
R6A	0.0442
D10A	-0.141

Series 2 — technique: RNA Bind-n-Seq; molecule type: RNA; sample: in vitro; concentration: 200 nM; setting: whole 134-nt RNA, ends assumed; added: 150 mM KCl; baseline: input library; direction: higher = stronger binding
Target: Ras GTPase-activating protein-binding protein 1, full length (G3BP1, Homo sapiens, UniProt Q13283)
UniProt Q13283, sequence (whole entry, looked up): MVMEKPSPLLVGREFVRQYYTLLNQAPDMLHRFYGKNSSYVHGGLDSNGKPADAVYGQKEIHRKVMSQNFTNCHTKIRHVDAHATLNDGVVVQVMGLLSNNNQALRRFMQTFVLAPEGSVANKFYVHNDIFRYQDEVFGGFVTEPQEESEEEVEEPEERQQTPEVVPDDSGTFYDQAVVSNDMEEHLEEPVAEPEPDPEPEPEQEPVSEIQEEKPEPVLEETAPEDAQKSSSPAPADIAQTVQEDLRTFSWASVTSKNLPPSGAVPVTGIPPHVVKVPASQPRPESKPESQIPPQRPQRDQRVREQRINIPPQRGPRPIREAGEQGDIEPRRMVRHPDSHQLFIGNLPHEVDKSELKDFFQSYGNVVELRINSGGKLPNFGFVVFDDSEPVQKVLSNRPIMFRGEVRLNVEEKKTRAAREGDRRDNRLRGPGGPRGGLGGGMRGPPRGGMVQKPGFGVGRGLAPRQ
Strand	log2 enrichment
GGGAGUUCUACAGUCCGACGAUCCCUCAAGUCCUGUGCUACACAUCGUAUGUACCGAAUCGGGUGGGGUGGUGGGAAAGUAUUAUGUUACGCCGUUCGGAUCUGCACUUCCAGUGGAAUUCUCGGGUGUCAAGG	1.21
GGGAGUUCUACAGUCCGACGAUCAGUCCUGUGCUACACAUCGUAUGUACCGAAUCGGGGUUUGGGGAAAGGGGUUUGGGGAAAGUAUUAUGUUACGCCGUUCGGAUCUGCACUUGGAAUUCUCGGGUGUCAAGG	0.648
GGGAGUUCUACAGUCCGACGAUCUCAAGUCCUGUGCUACACAUCGUAUGUACCGAAUCGGGGCCCGGCCCGGCCCGGGAAAGUAUUAUGUUACGCCGUUCGGAUCUGCACUUCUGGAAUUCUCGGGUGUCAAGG	-0.823
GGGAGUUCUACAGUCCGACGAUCGCAGGAAGUAAAAACAAAUGGAAAUGCUUCGGAUAGUGGCAGGGGUGGGGGUUGCUAAGGAAAGGGUGGGAUGGUAGUGGGUAAAGAGUUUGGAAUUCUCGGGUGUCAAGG	0.577
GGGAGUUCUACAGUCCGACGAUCCUCAAGUCCUGUGCUACACAUCGUAUGUACCGAAUCGGCCCGGCCCGGCCCGGGAAAGUAUUAUGUUACGCCGUUCGGAUCUGCACUUCCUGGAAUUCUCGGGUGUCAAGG	-0.308
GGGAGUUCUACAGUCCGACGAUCACCAUGCAGGUGGGCAUCUUUGGGAAGUGGAGCAAGGGGGGGAUAGGGAGGGGGGUAACACUUUGGGAACAGGUGGUCCCAGGUCGUUUCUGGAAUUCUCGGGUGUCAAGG	1.1
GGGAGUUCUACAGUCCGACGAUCACCAUGCAAGUGGGCAUCUUUGGGAAGUGGGGCAAGGGGGGGAUAGGGAGGGGGGUAACACUUUGGGAACAGGUGGUCCCAGGUCGUUUCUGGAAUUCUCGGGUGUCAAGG	1.05
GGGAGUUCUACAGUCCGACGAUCCUCAAGUCCUGUGCUACACAUCGUAUGUACCGAAUCGGGCCCGGCCCGGCCCGGAAAGUAUUAUGUUACGCCGUUCGGAUCUGCACUUCCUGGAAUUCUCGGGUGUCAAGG	-0.559
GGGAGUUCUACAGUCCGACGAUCCAAGUCCUGUGCUACACAUCGUAUGUACCGAAUCGGGGCCCGGCCCGGGGCCCGGAAAGUAUUAUGUUACGCCGUUCGGAUCUGCACUUCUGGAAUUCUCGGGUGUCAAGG	-0.938
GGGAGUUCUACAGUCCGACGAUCUCCUGUGCUACACAUCGUAUGUACCGAAUCGGGGUUUUUGGGUUUUUGGGGUUUUUGGGGAAAGUAUUAUGUUACGCCGUUCGGAUCUGCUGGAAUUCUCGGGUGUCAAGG	0.273
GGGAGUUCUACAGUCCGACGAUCAAGUCCUGUGCUACACAUCGUAUGUACCGAAUCGGGAAAAAGGGAGGGAAAAAGGGAAAGUAUUAUGUUACGCCGUUCGGAUCUGCACUUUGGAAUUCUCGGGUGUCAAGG	0.293
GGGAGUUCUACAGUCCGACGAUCCAAGUCCUGUGCUACACAUCGUAUGUACCGAAUCGGUUUUGGUUUUGGGGUUUUGGAAAGUAUUAUGUUACGCCGUUCGGAUCUGCACUUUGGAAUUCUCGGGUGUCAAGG	-1.2
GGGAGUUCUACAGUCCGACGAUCCUGUGCUACACAUCGUAUGUACCGAAUCGGGUUUUUUUGGUUUUUUUGGGUUUUUUUGGGGAAAGUAUUAUGUUACGCCGUUCGGAUCUGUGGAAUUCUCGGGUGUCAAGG	-1.02
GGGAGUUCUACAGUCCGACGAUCUGGUGACCUACCUGGACGUCCGGAGCUGCCUUGGACACCUAGGCUACCUGGGCUACCCCACCCUCUGUGAGCAGGACCAGGCCCAUGCCAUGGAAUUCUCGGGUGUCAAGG	-0.212

Series 3 — technique: protein-binding microarray; molecule type: double-stranded DNA, one strand shown; sample: in vitro; concentration: 940 nM top; setting: 60-bp whole probe; added: salmon DNA 0.4 mg/ml; baseline: random background probes; direction: higher = stronger binding; all sequences stand within: GCCTAGCAC … GTCTTGATTCGCTTGACGCTGCTG
Target: Interferon regulatory factor 5, full length, phosphomimetic (IRF5, Homo sapiens, UniProt Q13568-2, residues 1-514, S451D/S453D/S456D/S462D)
Strand	fitted relative affinity
TCAAGGTTCAAGTTTACCACTGTGCTA	-0.531 z-score
TTAGGTATCGACCTTCGGTTAGTGCTA	4.28 z-score
TCAATTTCAGTTTTCTTACTGTGCTAG	1.68 z-score
GACGGTTTCGTTTCCCTGACGTGCTAG	9.38 z-score
TAGTTTTACTTTCTATCTCTGTGCTAG	3.34 z-score
TTAGGTATCGGGTTTCGGTTCGTGCTA	8.06 z-score
GACGAACTGGGGGATCGAGACGTGCTA	0.892 z-score
GACGGACTGGACTTTCGGCACGTGCTA	0.312 z-score
GACGGACTGGGTCCCGGGACGTGCTAG	-0.663 z-score
GACGATTTCGGGACTGGAGCCGTGCTA	-0.139 z-score
TCACTTATCCAATCAGAACTGTGCTAG	0.353 z-score
TTATATATCAGTATCGATTAGTGCTAG	5.22 z-score
TTAGGACTGCGGTATCGGTTAGTGCTA	2.59 z-score
GACGGTTTCCTTTCCCTGAGGTGCTAG	1.32 z-score
CTGACCTTTTCCTGAGGCAGGTGCTAG	1.9 z-score
TCAAGCTTTTCATTTTTTACTGTGCTA	0.97 z-score
TTCCCAATGGTCTTTCCACTTGTGCTA	0.753 z-score
GACGGACTGCTCCTCCTGACGTGCTAG	-0.206 z-score
TTAGATTTCTGACTGGATTAGTGCTAG	0.279 z-score

Single results of other studies
Substance	target	assay	system	setting	how to read	measurement	value
PhoQ, residues 284 288 289 292 302 303 GNNTDL	PhoP, residues 12 14 15 18 19 TQAIL (Escherichia coli, UniProt P23836)	Sort-seq, measured: YFP reporter	E. coli	PhoQ-PhoP variant library, added: 10 µM Mg2+	baseline: high Mg2+ state, higher = stronger signaling	fold induction	2.97

Some of these lines once more (series 2):
Strand	log2 enrichment
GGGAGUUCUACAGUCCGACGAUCCUCAAGUCCUGUGCUACACAUCGUAUGUACCGAAUCGGCCCGGCCCGGCCCGGGAAAGUAUUAUGUUACGCCGUUCGGAUCUGCACUUCCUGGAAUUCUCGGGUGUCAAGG	-0.308
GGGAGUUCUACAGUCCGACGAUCACCAUGCAGGUGGGCAUCUUUGGGAAGUGGAGCAAGGGGGGGAUAGGGAGGGGGGUAACACUUUGGGAACAGGUGGUCCCAGGUCGUUUCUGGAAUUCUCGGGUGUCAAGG	1.1
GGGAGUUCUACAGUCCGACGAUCACCAUGCAAGUGGGCAUCUUUGGGAAGUGGGGCAAGGGGGGGAUAGGGAGGGGGGUAACACUUUGGGAACAGGUGGUCCCAGGUCGUUUCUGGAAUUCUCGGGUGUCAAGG	1.05
